Experimental data collected from several papers.
Every numbered part comes from another study and shows a few of its results, in no order.
Chain of UniProt Q04771 (whole entry, looked up): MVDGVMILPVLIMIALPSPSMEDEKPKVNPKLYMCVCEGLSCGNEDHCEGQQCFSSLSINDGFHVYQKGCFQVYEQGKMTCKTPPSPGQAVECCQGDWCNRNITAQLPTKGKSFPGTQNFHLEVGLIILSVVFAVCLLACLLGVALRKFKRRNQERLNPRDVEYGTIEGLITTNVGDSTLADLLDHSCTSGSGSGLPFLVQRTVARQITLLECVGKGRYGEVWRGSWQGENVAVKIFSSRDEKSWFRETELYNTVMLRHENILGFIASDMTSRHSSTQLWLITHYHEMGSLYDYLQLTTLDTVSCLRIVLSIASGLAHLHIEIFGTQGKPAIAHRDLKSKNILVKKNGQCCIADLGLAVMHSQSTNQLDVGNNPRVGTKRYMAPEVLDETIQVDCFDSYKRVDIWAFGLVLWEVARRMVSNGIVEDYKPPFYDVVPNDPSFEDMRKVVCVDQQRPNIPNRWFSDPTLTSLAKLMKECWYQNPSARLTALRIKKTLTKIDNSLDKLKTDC
Chain of UniProt P80192 (whole entry, looked up): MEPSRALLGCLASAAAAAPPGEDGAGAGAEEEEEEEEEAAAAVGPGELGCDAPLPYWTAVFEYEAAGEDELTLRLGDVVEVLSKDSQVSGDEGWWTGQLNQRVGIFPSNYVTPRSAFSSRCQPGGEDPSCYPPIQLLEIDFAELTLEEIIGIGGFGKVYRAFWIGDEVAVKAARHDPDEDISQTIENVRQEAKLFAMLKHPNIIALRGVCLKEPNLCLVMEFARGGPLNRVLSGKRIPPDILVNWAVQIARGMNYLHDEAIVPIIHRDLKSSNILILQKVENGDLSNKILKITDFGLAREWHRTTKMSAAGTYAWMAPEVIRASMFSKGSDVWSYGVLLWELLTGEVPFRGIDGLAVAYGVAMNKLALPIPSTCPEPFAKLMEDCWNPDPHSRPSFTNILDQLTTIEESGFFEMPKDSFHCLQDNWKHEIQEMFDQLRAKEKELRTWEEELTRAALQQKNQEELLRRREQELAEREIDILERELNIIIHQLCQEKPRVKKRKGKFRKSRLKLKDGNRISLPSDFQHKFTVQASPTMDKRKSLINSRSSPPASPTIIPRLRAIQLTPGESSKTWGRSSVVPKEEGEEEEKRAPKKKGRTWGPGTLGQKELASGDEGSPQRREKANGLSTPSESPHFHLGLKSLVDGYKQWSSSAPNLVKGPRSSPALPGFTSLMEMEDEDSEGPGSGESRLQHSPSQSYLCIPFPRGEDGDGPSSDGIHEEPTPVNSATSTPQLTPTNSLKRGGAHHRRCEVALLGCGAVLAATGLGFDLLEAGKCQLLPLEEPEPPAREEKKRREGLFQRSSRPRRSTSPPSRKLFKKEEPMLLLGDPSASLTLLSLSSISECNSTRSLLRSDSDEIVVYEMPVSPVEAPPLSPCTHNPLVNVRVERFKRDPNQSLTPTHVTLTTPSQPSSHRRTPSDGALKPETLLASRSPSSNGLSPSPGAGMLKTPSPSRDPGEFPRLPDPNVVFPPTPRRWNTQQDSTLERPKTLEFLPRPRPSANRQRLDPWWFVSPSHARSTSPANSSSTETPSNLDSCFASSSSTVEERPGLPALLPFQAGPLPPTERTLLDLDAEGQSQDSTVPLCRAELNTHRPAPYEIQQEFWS
Chain of UniProt P47898 (whole entry, looked up): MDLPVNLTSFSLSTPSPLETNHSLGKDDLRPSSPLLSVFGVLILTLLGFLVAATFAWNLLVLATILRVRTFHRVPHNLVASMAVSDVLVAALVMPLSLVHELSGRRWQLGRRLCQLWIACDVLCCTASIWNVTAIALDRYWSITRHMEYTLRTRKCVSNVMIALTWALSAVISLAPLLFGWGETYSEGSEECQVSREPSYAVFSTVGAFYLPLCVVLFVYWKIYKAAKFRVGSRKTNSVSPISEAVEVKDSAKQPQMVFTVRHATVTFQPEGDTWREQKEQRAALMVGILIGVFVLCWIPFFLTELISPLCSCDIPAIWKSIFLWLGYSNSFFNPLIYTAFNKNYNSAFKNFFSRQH
Chain of UniProt P15735 (whole entry, looked up): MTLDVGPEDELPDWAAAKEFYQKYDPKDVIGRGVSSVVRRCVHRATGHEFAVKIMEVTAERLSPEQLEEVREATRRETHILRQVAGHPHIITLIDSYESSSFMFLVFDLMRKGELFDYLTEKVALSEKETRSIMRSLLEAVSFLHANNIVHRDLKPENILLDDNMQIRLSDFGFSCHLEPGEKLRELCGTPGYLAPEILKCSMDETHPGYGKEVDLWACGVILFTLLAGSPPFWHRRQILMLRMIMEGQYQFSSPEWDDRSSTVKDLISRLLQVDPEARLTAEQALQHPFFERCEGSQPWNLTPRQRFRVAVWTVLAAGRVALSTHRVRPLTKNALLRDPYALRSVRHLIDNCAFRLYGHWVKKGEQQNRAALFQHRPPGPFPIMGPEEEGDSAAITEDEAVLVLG
Chain of UniProt P53350 (whole entry, looked up): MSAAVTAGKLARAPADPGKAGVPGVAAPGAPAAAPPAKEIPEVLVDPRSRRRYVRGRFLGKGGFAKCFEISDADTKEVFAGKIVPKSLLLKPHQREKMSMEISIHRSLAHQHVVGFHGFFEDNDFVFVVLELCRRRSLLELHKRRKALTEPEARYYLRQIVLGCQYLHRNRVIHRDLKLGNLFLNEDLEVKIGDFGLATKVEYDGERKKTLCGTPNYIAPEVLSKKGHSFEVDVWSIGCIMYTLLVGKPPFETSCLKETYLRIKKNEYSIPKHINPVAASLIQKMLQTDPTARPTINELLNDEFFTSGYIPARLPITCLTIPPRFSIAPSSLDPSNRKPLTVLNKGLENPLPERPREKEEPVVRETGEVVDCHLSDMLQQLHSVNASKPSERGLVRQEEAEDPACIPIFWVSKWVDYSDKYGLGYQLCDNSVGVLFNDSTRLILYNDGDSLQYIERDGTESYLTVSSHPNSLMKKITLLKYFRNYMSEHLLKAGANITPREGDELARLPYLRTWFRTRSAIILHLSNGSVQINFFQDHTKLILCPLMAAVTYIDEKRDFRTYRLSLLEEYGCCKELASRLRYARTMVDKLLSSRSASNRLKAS
Chain of UniProt P08631 (whole entry, looked up): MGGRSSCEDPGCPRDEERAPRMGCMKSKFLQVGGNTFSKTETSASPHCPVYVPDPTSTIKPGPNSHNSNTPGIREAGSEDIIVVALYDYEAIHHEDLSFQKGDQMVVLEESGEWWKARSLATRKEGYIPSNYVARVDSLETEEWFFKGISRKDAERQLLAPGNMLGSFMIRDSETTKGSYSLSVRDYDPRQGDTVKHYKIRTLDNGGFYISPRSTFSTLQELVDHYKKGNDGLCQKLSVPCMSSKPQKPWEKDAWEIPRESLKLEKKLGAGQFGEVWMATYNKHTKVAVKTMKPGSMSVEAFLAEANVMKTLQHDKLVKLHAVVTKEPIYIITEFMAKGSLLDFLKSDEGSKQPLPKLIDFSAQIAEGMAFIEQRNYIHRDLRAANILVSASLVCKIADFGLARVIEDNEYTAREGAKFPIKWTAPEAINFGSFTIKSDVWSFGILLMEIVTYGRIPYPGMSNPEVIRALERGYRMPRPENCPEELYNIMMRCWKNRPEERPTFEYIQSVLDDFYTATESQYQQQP
Chain of UniProt Q7L7X3 (whole entry, looked up): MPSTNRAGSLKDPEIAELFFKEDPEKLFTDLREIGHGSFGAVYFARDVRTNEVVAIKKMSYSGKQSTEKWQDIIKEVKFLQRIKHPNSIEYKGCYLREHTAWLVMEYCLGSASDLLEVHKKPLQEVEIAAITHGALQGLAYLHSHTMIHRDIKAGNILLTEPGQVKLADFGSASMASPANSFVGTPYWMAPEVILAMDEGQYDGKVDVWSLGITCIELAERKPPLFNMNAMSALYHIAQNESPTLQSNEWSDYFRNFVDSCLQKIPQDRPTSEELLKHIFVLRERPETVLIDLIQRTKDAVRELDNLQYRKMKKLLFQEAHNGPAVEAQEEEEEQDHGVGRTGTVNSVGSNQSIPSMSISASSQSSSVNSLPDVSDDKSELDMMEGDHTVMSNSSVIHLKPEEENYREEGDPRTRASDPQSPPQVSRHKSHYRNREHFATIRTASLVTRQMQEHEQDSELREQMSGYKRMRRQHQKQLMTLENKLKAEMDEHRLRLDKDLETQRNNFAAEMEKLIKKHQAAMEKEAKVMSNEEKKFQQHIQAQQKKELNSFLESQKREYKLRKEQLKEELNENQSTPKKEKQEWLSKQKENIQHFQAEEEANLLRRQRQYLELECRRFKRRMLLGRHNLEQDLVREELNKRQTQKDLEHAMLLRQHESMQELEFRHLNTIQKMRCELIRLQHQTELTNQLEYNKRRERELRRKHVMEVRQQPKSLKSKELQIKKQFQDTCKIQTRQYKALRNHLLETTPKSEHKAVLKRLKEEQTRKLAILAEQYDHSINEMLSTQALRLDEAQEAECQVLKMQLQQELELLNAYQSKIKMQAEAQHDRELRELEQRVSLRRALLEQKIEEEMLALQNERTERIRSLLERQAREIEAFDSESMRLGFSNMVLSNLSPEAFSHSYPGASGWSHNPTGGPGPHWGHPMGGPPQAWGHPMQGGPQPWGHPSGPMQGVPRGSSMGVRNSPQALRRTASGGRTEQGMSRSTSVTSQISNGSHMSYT

Study 1
Target: Bromodomain-containing protein 4, BD1 (BRD4, Homo sapiens, UniProt O60885)
Read-out: acetyl-histone H4 peptide binding
Method: AlphaScreen displacement
Concentration: 50 µM
Compound | inhibition
CC1CCc2nc(C(C#N)=Cc3ccncc3)sc2C1 (stereo not drawn) | 9.1%
Nc1nc(Nc2ccc(F)cc2)sc1C(=O)c1ccccc1 | 15.5%
Nc1nc(Nc2ccccc2F)sc1C(=O)c1ccc(Br)cc1 | 59.9%
COc1ccc(-c2c(-c3ccccc3)oc3ncnc(N)c23)cc1 | 13%
O=C(Nc1cc(Cl)ccc1C(=O)O)c1ccc2c(c1)C(=O)N(Cc1cccnc1)C2=O | 23.5%
Cc1ccc(NC(=O)c2cccc(N(C)C)c2)cc1NC(=O)c1ccc(O)cc1 | 36.7%
COc1ccc(C)c(Nc2cc(OCCN3CCOCC3)nc(-n3cnc4ccccc43)n2)c1 | 54.9%

Study 2
Compound: O=C1Nc2ccc(Br)cc2/C1=C/c1cc2c([nH]1)CCCC2
Read-out: enzyme activity
Mode: inhibitor
Concentration: 0.5 µM
Reference: control
target | remaining activity
Fibroblast growth factor receptor 2 (FGFR2, Homo sapiens, UniProt P21802) | 87.4%
Phosphorylase b kinase gamma catalytic chain, liver/testis isoform (PHKG2, Homo sapiens, UniProt P15735) | 90.5%
Activated CDC42 kinase 1 (TNK2, Homo sapiens, UniProt Q07912) | 92.8%
RAF proto-oncogene serine/threonine-protein kinase (RAF1, Homo sapiens, UniProt P04049) | 88.2%
Insulin receptor-related protein (INSRR, Homo sapiens, UniProt P14616) | 94.8%
Platelet-derived growth factor receptor beta (PDGFRB, Homo sapiens, UniProt P09619) | 58.8%
Serine/threonine-protein kinase Sgk3 (SGK3, Homo sapiens, UniProt Q96BR1) | 97.6%
Serine/threonine-protein kinase VRK1 (VRK1, Homo sapiens, UniProt Q99986) | 108%
Serine/threonine-protein kinase PLK1 (PLK1, Homo sapiens, UniProt P53350) | 102%
Tyrosine-protein kinase HCK (HCK, Homo sapiens, UniProt P08631) | 88.5%
Receptor-interacting serine/threonine-protein kinase 2 (RIPK2, Homo sapiens, UniProt O43353) | 87.2%
Serine/threonine-protein kinase TAO1 (TAOK1, Homo sapiens, UniProt Q7L7X3) | 92.3%
Dual specificity tyrosine-phosphorylation-regulated kinase 2 (DYRK2, Homo sapiens, UniProt Q92630) | 90.8%
BDNF/NT-3 growth factors receptor (NTRK2, Homo sapiens, UniProt Q16620) | 43.6%
Activin receptor type-1 (ACVR1, Homo sapiens, UniProt Q04771) | 97%
Mitogen-activated protein kinase kinase kinase kinase 5 (MAP4K5, Homo sapiens, UniProt Q9Y4K4) | 17.7%
Serine/threonine-protein kinase D3 (PRKD3, Homo sapiens, UniProt O94806) | 90.3%
Serine/threonine-protein kinase ULK1 (ULK1, Homo sapiens, UniProt O75385) | 69.4%
Mitogen-activated protein kinase kinase kinase 9 (MAP3K9, Homo sapiens, UniProt P80192) | 53.4%

Study 3
Target: Calcium/calmodulin-dependent protein kinase type II subunit alpha (CAMK2A, Homo sapiens, UniProt Q9UQM7)
Chain of UniProt Q9UQM7 (whole entry, looked up): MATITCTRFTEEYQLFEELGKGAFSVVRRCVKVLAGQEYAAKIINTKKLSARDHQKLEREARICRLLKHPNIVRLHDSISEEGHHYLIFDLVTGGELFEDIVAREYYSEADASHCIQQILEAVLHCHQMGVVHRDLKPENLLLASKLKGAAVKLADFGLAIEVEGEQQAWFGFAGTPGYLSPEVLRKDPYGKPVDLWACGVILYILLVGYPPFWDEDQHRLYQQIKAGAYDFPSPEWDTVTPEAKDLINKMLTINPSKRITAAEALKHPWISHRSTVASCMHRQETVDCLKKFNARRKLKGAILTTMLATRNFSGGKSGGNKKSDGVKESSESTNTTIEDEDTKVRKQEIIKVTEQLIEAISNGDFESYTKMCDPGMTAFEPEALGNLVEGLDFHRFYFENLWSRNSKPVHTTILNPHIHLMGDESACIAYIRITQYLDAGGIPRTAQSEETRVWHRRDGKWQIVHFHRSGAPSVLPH
Read-out: enzyme activity
Mode: inhibitor
Concentration: 10 µM
Compound | inhibition
OC[C@H]1O[C@@H](Oc2cc(O)cc(C=Cc3ccc(O)cc3)c2)[C@H](O)[C@@H](O)[C@@H]1O (mixture of isomers) | -24%
C[C@H](CC[C@@H](O)C(C)(C)O)[C@H]1CC[C@@]2(C)[C@@H]3CC=C4[C@@H](CC[C@H](O)C4(C)C)[C@]3(C)C(=O)C[C@]12C | 15%
Cc1cc(=O)oc2cc(O)cc(O)c12 | 27%
CC(C)(C)C(=O)OCOP(=O)(COCCn1cnc2c(N)ncnc21)OCOC(=O)C(C)(C)C | 1%
CCCCCCO[C@@H](C)c1cccc(-c2csc(NC(=O)c3cc(Cl)c(/C=C(\C)C(=O)O)c(Cl)c3)n2)c1OC | -2%
CN(C)CCCN1c2ccccc2CCc2ccccc21 | 1%
CCN(CC)C(=S)SSC(=S)N(CC)CC | -10%
CC1(C)[C@@H](OC(=O)CCC(=O)O)CC[C@]2(C)[C@H]3C(=O)C=C4[C@@H]5C[C@@](C)(C(=O)O)CC[C@]5(C)CC[C@@]4(C)[C@]3(C)CC[C@@H]12 | -3%
COC(=S)NCc1ccc(O[C@@H]2O[C@@H](C)[C@H](O)[C@@H](O)[C@H]2O)cc1 | -6%
Oc1cccnc1 | -35%
CC(=O)Nc1c(I)cc(I)c(C(=O)O)c1I | -1%
COc1cc(C=O)ccc1O[C@@H]1O[C@H](CO)[C@@H](O)[C@H](O)[C@H]1O | -16%

Further values, each from its own experiment
Compound | target | read-out | concentration | endpoint | value
C[C@@H](c1cccc(C#N)c1)n1cc(Cl)cc(C(N)=O)c1=N | 5-hydroxytryptamine receptor 5A (HTR5A, Homo sapiens, UniProt P47898) | ligand displacement | 10 µM | inhibition | -12.9%

Repeated from above (study 2):
target | remaining activity
Phosphorylase b kinase gamma catalytic chain, liver/testis isoform (PHKG2, Homo sapiens, UniProt P15735) | 90.5%
Serine/threonine-protein kinase D3 (PRKD3, Homo sapiens, UniProt O94806) | 90.3%
Mitogen-activated protein kinase kinase kinase kinase 5 (MAP4K5, Homo sapiens, UniProt Q9Y4K4) | 17.7%
Serine/threonine-protein kinase VRK1 (VRK1, Homo sapiens, UniProt Q99986) | 108%
